Experimental data of several laboratories.
± gives the spread as reported.

| Compound | cell line | read-out | method | time | pH | IC50 [µM] |
| --- | --- | --- | --- | --- | --- | --- |
| C[C@@H]1CCC2[C@@H](C)[C@@H](OCCC[P+](c3ccccc3)(c3ccccc3)c3ccccc3)O[C@@H]3O[C@@]4(C)CCC1[C@@]23OO4 (stereo partly drawn) | T24 | cell growth or viability | MTT | 72 h | – | 0.259 |
| C1=CCCC=CCC1.C1=CCCC=CCC1.[Cl][Hg-]([Cl])[Cl].[Cl][Hg-]([Cl])[Cl].[Pt+][c]1ccccc1P(=Nc1ccccc1)(c1ccccc1)c1ccccc1.[Pt+][c]1ccccc1P(=Nc1ccccc1)(c1ccccc1)c1ccccc1 | MIA PaCa-2 | cell growth or viability | MTT | 24 h | – | 0.79 |
| Cc1cc(C)n(C(C(=O)OC(C)C)n2nc(C)cc2C)n1.F[P-](F)(F)(F)(F)F.[Cu+].c1ccc(P(c2ccccc2)c2ccccc2)cc1 | LoVo OXP, oxaliplatin-resistant | – | MTT | 72 h | – | 10.5 ± 0.3 |
| CCOC(=O)[C@@H]1Cc2c(cc([N+](=O)[O-])cc2[N+](=O)[O-])[C@@H](O)[C@@]12C(=O)Nc1ccc(Br)cc12 | U-251 | cell growth or viability | MTT | 24 h | – | > 50 |
| O=C(NCc1ccco1)C1CCN(S(=O)(=O)c2ccc(Cl)cc2)CC1 | CHO | cell growth or viability | MTT | – | – | > 50 |
| C=CC12COC(=O)C(=C)C1C(O)C1C(=C)C(=O)OC1C2 (stereo not drawn) | MCF-10A | cell growth or viability | MTT | 72 h | – | 1.6 |
| [Cl][Au-]1([Cl])[c]2ccccc2P(c2ccccc2)(c2ccccc2)=[N+]1c1ccccc1 | human PBMC (healthy donors) | cell death | annexin V flow cytometry | 24 h | – | 6 |
| CC[C@H](C)[C@H](NC(=O)[C@H](CO)NC(=O)[C@H](CCCNC(=N)N)NC(=O)[C@@H]1CCCN1C(=O)[C@H](Cc1c[nH]c2ccccc12)NC(=O)[C@H](CCCNC(=N)N)NC(=O)[C@H](CCCNC(=N)N)NC(C)=O)C(=O)N[C@@H](CC(C)C)C(=O)N[C@@H](CC(=O)O)C(=O)N[C@@H](CCC(=O)O)C(=O)N[C@@H](Cc1c[nH]cn1)C(=O)N[C@H](C(=O)N[C@@H](CCCNC(=N)N)C(=O)N[C@@H](CCCNC(=N)N)C(=O)N[C@H](C(=O)N[C@@H](Cc1c[nH]c2ccccc12)C(=O)N[C@@H](CCCNC(=N)N)C(=O)NCCCCCC(=O)N[C@@H](C)C(=O)N[C@@H](CC(C)C)C(=O)N[C@@H](C)C(=O)N1CCC[C@H]1C(=O)N[C@@H](Cc1ccc(O)cc1)C(=O)N[C@H](C(=O)N1CCC[C@H]1C(=O)N[C@@H](Cc1ccc(O)cc1)C(=O)NCC(=O)N[C@@H](CCCNC(=N)N)C(=O)N[C@@H](CCCCN)C(=O)N[C@@H](CCCCN)C(=O)N[C@@H](CCCNC(=N)N)C(=O)N[C@@H](CCCNC(=N)N)C(=O)N[C@@H](CCC(N)=O)C(=O)N[C@@H](CCCNC(=N)N)C(=O)N[C@@H](CCCNC(=N)N)C(=O)N[C@@H](CCCNC(=N)N)C(N)=O)[C@@H](C)CC)C(C)C)C(C)C | CT26 | cell growth or viability | CCK-8 | – | – | 12.3 |
| Cc1cc(C)c(N2CCN(c3c(C)cc(C)cc3C)C2=[Se])c(C)c1.[Cl][Ag] | HCT-15 | cell growth or viability | MTT | 72 h | – | 4 |
| CCC(C)C1OC(=O)C(NC(=O)c2cccc(NC=O)c2O)C(C)OC(=O)C(C(C)CC)OC(=O)C(C)(C)C(=O)C(Cc2ccccc2)OC1=O (stereo not drawn) | SGC-7901 | cell growth or viability | CCK-8 | 72 h | – | 0.0015 |
| C=CC[P](c1ccccc1)(c1ccccc1)[Pt]([S]c1ccc(C(F)(F)F)cn1)([S]c1ccc(C(F)(F)F)cn1)[P](CC=C)(c1ccccc1)c1ccccc1 | MCF-10A | cell growth or viability | MTT | – | – | 53.3 |
| Cc1cc(C)c(-n2c[n+](-c3c(C)cc(C)cc3C)c3c2-c2cccc4cccc-3c24)c(C)c1.[Cl][Pd-]([Cl])[CH2]C=Cc1ccccc1 | CHO | cell growth or viability | MTT | 72 h | – | 5 |
| CC(C)[C@@H]1NC(=O)[C@H](C)OC(=O)[C@@H](C(C)C)NC(=O)[C@@H](C(C)C)OC(=O)[C@H](C(C)C)NC(=O)[C@H](C)OC(=O)[C@@H](C(C)C)NC(=O)[C@@H](C(C)C)OC(=O)[C@H](C(C)C)NC(=O)[C@H](C)OC(=O)[C@@H](C(C)C)NC(=O)[C@H](C)OC1=O | U-87 MG | cell growth or viability | SRB | 72 h | – | 0.2 |
| CC(=O)N[C@@H](Cc1c[nH]c2ccccc12)C(=O)N[C@@H](C)C(=O)N1CCC[C@H]1C(=O)N1CCC[C@H]1C(=O)N[C@@H](CC(C)C)C(=O)N[C@@H](Cc1c[nH]cn1)C(=O)N[C@@H](CO)C(=O)N[C@H](C(=O)N[C@@H](C)C(N)=O)[C@@H](C)OP(=O)(O)O | U-266 | cell growth or viability | MTT | 72 h | – | 0.72 |
| C[C@H]1O[C@@H](O[C@H]2CC[C@@]3(C)[C@H](CC[C@@H]4[C@@H]3C[C@@H](O)[C@]3(C)[C@@H](C5=CC(=O)OC5)[C@@H](O)C[C@]43O)C2)C[C@H](O)[C@@H]1O | BEAS-2B | cell growth or viability | MTT | 48 h | – | 2.4 |
| CCOC(=O)[C@H]1Cc2c(cc([N+](=O)[O-])cc2[N+](=O)[O-])[C@H](O)[C@]12C(=O)Nc1ccccc12 | U-251 | cell growth or viability | MTT | 24 h | – | > 50 |
| C#CCSc1nc(Sc2nnnn2C)c2nnn(Cc3ccccc3)c2n1 | Raji | cell growth or viability | MTS | 6 days | – | 3.02 |
| CC(C)C[C@H](NC(=O)[C@H](CCCCN)NC(=O)[C@H](CC(C)C)NC(=O)[C@H](CC(C)C)NC(=O)[C@H](CCCCN)NC(=O)[C@H](CCCCN)NC(=O)[C@H](CC(C)C)NC(=O)[C@H](CC(C)C)NC(=O)[C@H](CCCCN)NC(=O)[C@H](CC(C)C)NC(=O)[C@H](CC(C)C)NC(=O)[C@H](CCCCN)NC(=O)[C@H](CCCCN)NC(=O)[C@H](CC(C)C)NC(=O)[C@@H](N)CSSC[C@H](N)C(=O)N[C@@H](CC(C)C)C(=O)N[C@@H](CCC(=O)O)C(=O)N[C@@H](CCC(=O)O)C(=O)N[C@@H](CC(C)C)C(=O)N[C@@H](CC(C)C)C(=O)N[C@@H](Cc1c[nH]cn1)C(=O)N[C@@H](Cc1c[nH]cn1)C(=O)N[C@@H](CC(C)C)C(=O)N[C@@H](CCC(=O)O)C(=O)N[C@@H](CCC(=O)O)C(=O)N[C@@H](CC(C)C)C(=O)N[C@@H](CC(C)C)C(=O)N[C@@H](Cc1c[nH]cn1)C(=O)N[C@@H](Cc1c[nH]cn1)C(N)=O)C(N)=O | 4T1 | cell growth or viability | MTT | – | pH 7.4 | > 100 |
| C[C@H]1[C@H](OC(=O)CCC(=O)OCCc2ccc(O)cc2)O[C@@H]2O[C@@]3(C)CC[C@H]4[C@H](C)CC[C@@H]1[C@@]24OO3 | SK-MEL-3 | cell viability | MTT | 24 h | – | 1.28 ± 0.15 |
| CC(C)C[C@H](NC(=O)[C@H](CCC(N)=O)NC(=O)[C@@H]1CSSC[C@@H]2NC(=O)[C@H](CC(N)=O)NC(=O)[C@@H](NC(=O)[C@@H](CCCNC(=N)N)NC(=O)[C@@H](CCCNC(=N)N)NC(=O)[C@@H](CCCNC(=N)N)NC(=O)[C@@H](CCCNC(=N)N)NC(=O)[C@@H](CCCNC(=N)N)NC(=O)[C@@H](CCCNC(=N)N)NC(=O)[C@@H](CCCNC(=N)N)NC(=O)[C@@H](CCCNC(=N)N)NC(=O)[C@H](N)CCCNC(=N)N)CSSC[C@H](NC(=O)[C@H](Cc3ccccc3)NC(=O)[C@H](C)NC(=O)[C@H]([C@@H](C)O)NC(=O)[C@H](CCC(=O)O)NC(=O)[C@@H]3CCCN3C(=O)[C@H](C)NC(=O)[C@H](CCCCN)NC2=O)C(=O)N[C@@H](C)C(=O)N[C@@H](Cc2ccc(O)cc2)C(=O)N[C@@H](Cc2c[nH]c3ccccc23)C(=O)N1)C(N)=O | HCT-116 p53+/+ | cytotoxicity | – | – | – | ~6 |
| C[C@H]1[C@H](OC(=O)CCC(=O)OCCc2ccc(OC(=O)CCC(=O)O[C@@H]3O[C@@H]4O[C@@]5(C)CC[C@H]6[C@H](C)CC[C@@H]([C@H]3C)[C@@]46OO5)cc2)O[C@@H]2O[C@@]3(C)CC[C@H]4[C@H](C)CC[C@@H]1[C@@]24OO3 | SK-MEL-24 | cell growth or viability | MTT | 24 h | – | 0.24 |
| C[C@@H](N)[C@H](O)CCCCCCCC(=O)CCCCCCCCCCCCCC[C@@H](O[C@@H]1O[C@H](CO)[C@H](O)[C@H](O)[C@H]1O)[C@H](N)CO | MCF-12A | cell growth or viability | resazurin | 96 h | – | 14 |
| CC(C)C[C@H](NC(=O)[C@H](CC(C)C)NC(=O)[C@H](Cc1c[nH]cn1)NC(=O)[C@H](CCC(=O)O)NC(=O)[C@H](CC(C)C)NC(=O)[C@H](Cc1c[nH]cn1)NC(=O)[C@H](CCC(=O)O)NC(=O)[C@H](CC(C)C)NC(=O)[C@H](CC(C)C)NC(=O)[C@H](Cc1c[nH]cn1)NC(=O)[C@H](CCC(=O)O)NC(=O)[C@@H](N)CC(C)C)C(=O)N[C@@H](CCC(=O)O)C(=O)N[C@@H](Cc1c[nH]cn1)C(N)=O | 4T1 | cell growth or viability | MTT | – | pH 6 | > 100 |
| OC[C@H]1[C@@H](O)[C@@H](O)CN1Cc1ccccc1 | HCT116 p53-/- | – | MTS | 72 h | – | > 200 |

Some of these lines once more:
| Compound | cell line | read-out | method | time | pH | IC50 [µM] |
| --- | --- | --- | --- | --- | --- | --- |
| CCOC(=O)[C@@H]1Cc2c(cc([N+](=O)[O-])cc2[N+](=O)[O-])[C@@H](O)[C@@]12C(=O)Nc1ccc(Br)cc12 | U-251 | cell growth or viability | MTT | 24 h | – | > 50 |
| CC(=O)N[C@@H](Cc1c[nH]c2ccccc12)C(=O)N[C@@H](C)C(=O)N1CCC[C@H]1C(=O)N1CCC[C@H]1C(=O)N[C@@H](CC(C)C)C(=O)N[C@@H](Cc1c[nH]cn1)C(=O)N[C@@H](CO)C(=O)N[C@H](C(=O)N[C@@H](C)C(N)=O)[C@@H](C)OP(=O)(O)O | U-266 | cell growth or viability | MTT | 72 h | – | 0.72 |
| C=CC[P](c1ccccc1)(c1ccccc1)[Pt]([S]c1ccc(C(F)(F)F)cn1)([S]c1ccc(C(F)(F)F)cn1)[P](CC=C)(c1ccccc1)c1ccccc1 | MCF-10A | cell growth or viability | MTT | – | – | 53.3 |
| Cc1cc(C)c(-n2c[n+](-c3c(C)cc(C)cc3C)c3c2-c2cccc4cccc-3c24)c(C)c1.[Cl][Pd-]([Cl])[CH2]C=Cc1ccccc1 | CHO | cell growth or viability | MTT | 72 h | – | 5 |
